Measurements of several laboratories.
Compare with care: the assays were run in different laboratories. ± marks the error that the study gave. Ends that are not written are not given here.
HMGA2 full length assumed: HMGA2 full length assumed (Homo sapiens, UniProt P52926)
Chain of UniProt P52926 (whole entry, looked up): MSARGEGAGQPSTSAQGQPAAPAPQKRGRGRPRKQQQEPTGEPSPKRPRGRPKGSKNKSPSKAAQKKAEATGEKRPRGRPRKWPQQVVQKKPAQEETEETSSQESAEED
B1: enzyme (Bacillus pumilus, UniProt A8FFI9); chain EARSIAWSVDEFFKNREGTFVIQEVKEKSPWVYNKKRAKERFAPQSTFKVANALIGLQTGAVRDEYDIKYWDGVKREIDNWNRDHTLGSGMRDSVVWYYQAMARDIGEERMNHWVKAIHYGNKDISGGIDQFWLSSTLRISPIEQVRFLKQLYEETLPFDLKNMRTVKRMMVQEEEKHATLYGKTGSGSDIGWYVGFIKHEHKTYILATNIKGTGIEAKDITYRILKKYHLMEASV
Chain of UniProt P0A6X3 (whole entry, looked up): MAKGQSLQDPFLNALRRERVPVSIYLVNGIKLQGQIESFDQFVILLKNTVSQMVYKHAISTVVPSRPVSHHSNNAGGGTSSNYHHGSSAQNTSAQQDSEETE
Chain of UniProt O60656 (whole entry, looked up): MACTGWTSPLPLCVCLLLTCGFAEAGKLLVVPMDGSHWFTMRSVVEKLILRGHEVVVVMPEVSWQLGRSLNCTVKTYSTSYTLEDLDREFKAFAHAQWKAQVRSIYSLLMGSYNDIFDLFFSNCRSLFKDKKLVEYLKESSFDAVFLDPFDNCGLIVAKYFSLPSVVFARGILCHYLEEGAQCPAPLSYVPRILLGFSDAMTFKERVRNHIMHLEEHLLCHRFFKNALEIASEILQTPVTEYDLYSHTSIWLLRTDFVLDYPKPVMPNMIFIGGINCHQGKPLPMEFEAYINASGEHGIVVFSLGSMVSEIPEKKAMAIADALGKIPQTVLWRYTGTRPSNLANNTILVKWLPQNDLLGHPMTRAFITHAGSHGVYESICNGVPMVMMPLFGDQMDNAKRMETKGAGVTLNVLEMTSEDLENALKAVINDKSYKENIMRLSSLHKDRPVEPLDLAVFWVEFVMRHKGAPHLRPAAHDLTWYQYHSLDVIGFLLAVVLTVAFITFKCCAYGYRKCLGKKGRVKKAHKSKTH
Chain of UniProt Q9NZ08 (whole entry, unmodified, looked up): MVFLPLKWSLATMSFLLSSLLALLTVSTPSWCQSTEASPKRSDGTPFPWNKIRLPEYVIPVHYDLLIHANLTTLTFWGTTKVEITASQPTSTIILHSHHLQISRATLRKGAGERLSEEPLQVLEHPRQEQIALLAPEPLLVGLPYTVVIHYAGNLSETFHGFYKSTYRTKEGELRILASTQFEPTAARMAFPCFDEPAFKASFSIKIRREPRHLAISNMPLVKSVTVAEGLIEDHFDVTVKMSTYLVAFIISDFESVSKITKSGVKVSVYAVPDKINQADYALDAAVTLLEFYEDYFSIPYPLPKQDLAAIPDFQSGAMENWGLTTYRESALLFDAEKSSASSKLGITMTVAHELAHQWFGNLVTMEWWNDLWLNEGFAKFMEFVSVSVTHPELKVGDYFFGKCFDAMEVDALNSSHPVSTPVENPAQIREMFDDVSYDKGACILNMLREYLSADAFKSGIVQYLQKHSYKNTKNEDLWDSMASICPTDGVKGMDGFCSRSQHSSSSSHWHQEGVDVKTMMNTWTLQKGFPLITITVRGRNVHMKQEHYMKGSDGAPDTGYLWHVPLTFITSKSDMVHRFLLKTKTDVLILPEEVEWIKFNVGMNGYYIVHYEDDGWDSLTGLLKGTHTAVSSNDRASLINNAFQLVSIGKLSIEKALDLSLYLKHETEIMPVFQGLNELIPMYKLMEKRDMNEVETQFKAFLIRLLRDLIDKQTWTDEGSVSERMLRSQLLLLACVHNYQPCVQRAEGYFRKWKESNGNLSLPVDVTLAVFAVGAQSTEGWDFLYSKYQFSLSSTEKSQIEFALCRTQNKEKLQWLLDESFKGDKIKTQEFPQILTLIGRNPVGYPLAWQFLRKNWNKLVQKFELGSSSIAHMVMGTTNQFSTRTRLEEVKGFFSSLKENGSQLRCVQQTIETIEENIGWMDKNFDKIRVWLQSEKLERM
Chain of UniProt Q9H0Z9 (whole entry, looked up): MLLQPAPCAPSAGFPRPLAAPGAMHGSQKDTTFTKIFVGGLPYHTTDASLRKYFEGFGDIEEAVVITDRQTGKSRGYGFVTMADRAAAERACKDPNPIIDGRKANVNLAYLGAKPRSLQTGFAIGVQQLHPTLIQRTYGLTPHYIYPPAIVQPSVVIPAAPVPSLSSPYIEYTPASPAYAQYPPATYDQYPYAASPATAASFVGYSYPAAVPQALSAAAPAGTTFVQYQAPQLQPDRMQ
Chain of UniProt Q61164 (whole entry, looked up): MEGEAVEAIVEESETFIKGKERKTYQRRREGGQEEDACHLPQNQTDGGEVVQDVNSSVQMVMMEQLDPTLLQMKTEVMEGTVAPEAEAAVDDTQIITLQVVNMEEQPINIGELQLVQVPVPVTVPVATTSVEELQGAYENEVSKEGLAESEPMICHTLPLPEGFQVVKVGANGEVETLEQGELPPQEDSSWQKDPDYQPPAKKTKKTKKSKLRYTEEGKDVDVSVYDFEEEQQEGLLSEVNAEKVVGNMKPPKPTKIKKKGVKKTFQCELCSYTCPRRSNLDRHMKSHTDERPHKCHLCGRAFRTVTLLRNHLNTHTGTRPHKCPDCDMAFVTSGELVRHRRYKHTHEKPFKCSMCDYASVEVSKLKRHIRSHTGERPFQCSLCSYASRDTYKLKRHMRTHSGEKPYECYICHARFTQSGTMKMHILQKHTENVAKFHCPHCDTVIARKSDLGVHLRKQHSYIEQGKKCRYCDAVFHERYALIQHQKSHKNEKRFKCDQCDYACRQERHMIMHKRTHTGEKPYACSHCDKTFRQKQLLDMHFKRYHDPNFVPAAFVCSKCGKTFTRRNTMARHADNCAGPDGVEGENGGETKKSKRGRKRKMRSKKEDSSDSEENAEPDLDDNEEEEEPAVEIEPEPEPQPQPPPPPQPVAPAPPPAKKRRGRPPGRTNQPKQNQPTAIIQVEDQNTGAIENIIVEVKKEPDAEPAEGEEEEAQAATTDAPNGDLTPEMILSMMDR
Chain of UniProt P0ACF8 (whole entry, looked up): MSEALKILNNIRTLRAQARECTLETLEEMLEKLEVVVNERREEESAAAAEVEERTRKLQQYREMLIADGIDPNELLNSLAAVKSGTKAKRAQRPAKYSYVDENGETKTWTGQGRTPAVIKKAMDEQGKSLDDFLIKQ

For `GGGAGACCGUGCUCAGUCUGUUGUUGAUUACCUGAUCUCCAAAGGUAUCCCGGCAGACAAGAUCUCCGCACGUGGUAUGGGCGAAUCCAACCCGGUUACUGGCAACACCUGUGACAACGUGAAACAGCGUGCUGCACUGAUCGACUGCCUGGCUCCGGAUCGUCGCGUAGAGAUCGAAGUUAAAGGUAUCAAAGACGUUGUAACUCAGCCG (ssRNA)`, binding read “no binding” (hfq full length assumed (Escherichia coli, UniProt P0A6X3); EMSA; added: Mg2+ 1 mM).
With `B1 (enzyme)` the kcat was 0.014 ± 0.001 s⁻¹ (C[C@@H](O)[C@H]1C(=O)N2C(C(=O)O)=C(S[C@@H]3CN[C@H](C(=O)N(C)C)C3)[C@H](C)[C@H]12; steady-state kinetics; pH 7).
The Ka of `TCGACTGTAAATGACATAGGAAAAC (dsDNA (Homo sapiens))` is reported as 3.1e+06 M⁻¹ (HMGA2 full length assumed; EMSA; double-stranded DNA, one strand shown).
`AGCTGCCAGGCACCAGTGTCA / TGACACTGGTGCTTGGCAGCT (dsDNA; 21-bp, G-T mismatch, dT20 linker)` has a Kd of 28 ± 1 nM (MutS fragment E435C/R449C (Escherichia coli); SPR).
`GACGGCACCACCAGGCUUCUGUAACUUAUAAAAUGGCGGCGUCCACAUGUAUACGUCCUUCCCGGGAUUAGCCAGGCAGCUAGAGGAUGACUUAAUAAGGAGAGUGGAGAAACUGGCCAAUUAAUGAACAUGCCCUGAUCAUUAAUCCACCACUGAAGGAAGUCAGAGCAGAAACUCAAGCAGGGACUUGAAGAAGAAACCAUGGAGGAAUACGGCU (ssRNA)` — result for binding: “binds weakly” (Ctcf full length assumed (Mus musculus, UniProt Q61164); EMSA).
`AGCTTGAGAAGGAGGCGTGGCCAACGCATG (dsDNA)` gave a relative binding of 5 fold (KLF16 fragment (Homo sapiens); EMSA; double-stranded DNA, one strand shown; reference: ROB consensus, higher = more binding).
With `SIIVFEKL` the IL-2+ cells was 79.6% (OT-I CD8+ T cells; peptide; concentration not given, primed 5 d, OVA257 100 ng/mL restimulation, added: no TGF-beta1).
`GCCAATACGAATTTGGAGAGAGGAAAATATGGCACTAAAATACCGTTTCAAACCAAATGTTAAGGAGGTTTGGCGAATGTC (dsDNA)` — result for binding: “binds” (HTH arsR-type domain-containing protein (Pyrococcus furiosus, UniProt Q8U4J2); EMSA; double-stranded DNA, one strand shown).
For `CCCGGATCCGTAGTGACCAAAGCTATATTTACCAACGAATGTAGATGAAAAAATCATCTCCTGCGTTCCCCCATATCTCTAGGATAAAAAGGAATGTAACAATCTCATGGCGTAAGCTGACGAATCAGCAGGAATAATCGCTAGGGACCTAAGAATTAGCATGATAATAGCCACTAAGAAATTACTGCGCTCCATGAAATAGCCATTTTGTGGCAAATGGAGTTGACTAATAATGTCATATGTGAGACGGCTAGTTGAACGAATATTAAATTTTGCTGAATTTTTTATGTCGACGGG (dsDNA)`, binding read “binds” (hns full length assumed (Escherichia coli, UniProt P0ACF8); DNase I footprinting; double-stranded DNA, one strand shown).
`UGT1A9 (Homo sapiens, UniProt O60656)` gave a Vmax/Km of 46000 µL/min/mg (COc1ccc(-c2oc3cc(OC)ccc3c(=O)c2O)cc1; steady-state kinetics; pH 7.4, 37 °C).
Under “K1/2 of L-AMC”, `IINFEKE` is recorded as 0.24 ± 0.06 mM (ERAP1 (Homo sapiens, UniProt Q9NZ08, I681R); substrate; peptide; pH 8.0, 27 °C, mutant I681R, added: L-AMC, peptide activator 100 µM).
For `GAGUUGAGUUGAGUUGAGUUGAGUUGAGUUGAGUUGAGUUGAGUUGAGUUGAGUU (ssRNA; single strand)`, the Kd was 144 ± 22 nM (mtrB full length assumed T30V (Bacillus subtilis, UniProt P19466); filter binding; added: L-tryptophan 1 mM).
For `IINFEKL`, the Hill coefficient was 1.6 (ERAP1 human L734R; activator; peptide; 100 µM, pH 8.0, 27 °C, added: L-AMC substrate).
`ATATTGCGCATTATT (dsDNA)` has a Ka of 3.9e+07 M⁻¹ (HMGA2 full length assumed; EMSA; double-stranded DNA, one strand shown).
`GGGAGCACUCUGUCAUCCAGGCUAGAGUGCAGUGGCGUGAUCUCGGCUGACUGCAACCUCUGCCUCCCGGGUUCAAGUGAUUCUCCUGCCUCAAUCUCUCUCCCCAGAAGCUGGGAUUACAGGUGUGUGCCACCACACCCGGCUAAUUUUUUUUUUUUUUUUUGAGAUGGAGUCUAGCUCUGUCAUCCAGGCUGGAGUGCAGUGGUGUGAUCUCGG (ssRNA)`: binding “binds” (RBM38 full length assumed (Homo sapiens, UniProt Q9H0Z9); EMSA).
`TCTTCTGTGCACTCTTC (dsDNA)` has a K1/2 of 2100 nM (SF3 helicase domain-containing protein 752-844 (Saccharolobus islandicus, UniProt Q54324); fluorescence anisotropy; double-stranded DNA, one strand shown).
Under binding, `GAGTTGCGGGCACTTTATGACAGATTCATTGTTAGACTTTCAATTCCTTTTGGGATTAATCTTGAAACAATTTTCTCTTAGTTCGTCAGCAATAGAGAGTTCCTTTCAATTCCTTTTGGGATTAATCACTATTGATGAAGTTGCGGAG (dsDNA (Sulfolobus solfataricus))` is recorded as “binds weakly” (CRISPR-associated protein full length assumed (Saccharolobus solfataricus, UniProt Q97ZW9); competition; double-stranded DNA, one strand shown; weaker binding).
`GCGACCUGGUGGUUCUGGCGGGGUGGCUGCACCCGUUCCCAUUCCGAACACGGCCGUGAAACGCCCCAGCGCCGAUGGUACUUCGUCUUAAGACGCGGGAGAGUAGGUCGCUGCCAGGUCU (structured RNA)`: binding “no binding” (metK 1-426 (Sinorhizobium meliloti, UniProt Q92SI4); filter binding; 0-500 nM).
For `KCNTATCATQRLANFLVHSSNNFGPILPPTNVGSNTY (Pramlintide; not fully specified (C-terminus, bridges); cysteine pairing not given here; sequence looked up)`, “adverse event incidence” read 14.3% (refers to: Nausea; peptide, obese or overweight humans; concentration not given, ITT population).
With `SIYNFEKL` the IFN-gamma+ cells was 41.1% (OT-I CD8+ T cells; peptide; concentration not given, primed 5 d, OVA257 100 ng/mL restimulation, added: 20 ng/mL TGF-beta1 from day 2).
For `GGGAGAGUAGAUGCUCAUUCCAUCUCUUAUGUUCGCCUUAGUGCCUCAUAAACUCCGGAAUGACGCAGAGCCGUUUACGGUGCUUAUCGUCCACUGACAGAUGUCGCUUAUGCCUCAUCAGACACCAUGGACACAACGUUGAGUGAAGCACCCACUUGUUGUCAUACAGACCUGUUUUAACGCCUGCUCCGUAAUAAGAGCAGGCGUU (ssRNA (Escherichia coli); three stem loops)`, binding read “binds weakly” (hfq (Escherichia coli, UniProt P0A6X3); EMSA).

Repeated from above:
With `SIYNFEKL` the IFN-gamma+ cells was 41.1% (OT-I CD8+ T cells; peptide; concentration not given, primed 5 d, OVA257 100 ng/mL restimulation, added: 20 ng/mL TGF-beta1 from day 2).
`GGGAGCACUCUGUCAUCCAGGCUAGAGUGCAGUGGCGUGAUCUCGGCUGACUGCAACCUCUGCCUCCCGGGUUCAAGUGAUUCUCCUGCCUCAAUCUCUCUCCCCAGAAGCUGGGAUUACAGGUGUGUGCCACCACACCCGGCUAAUUUUUUUUUUUUUUUUUGAGAUGGAGUCUAGCUCUGUCAUCCAGGCUGGAGUGCAGUGGUGUGAUCUCGG (ssRNA)`: binding “binds” (RBM38 full length assumed (Homo sapiens, UniProt Q9H0Z9); EMSA).
